Results of several laboratories.
Compare with care: the assays were run in different laboratories. “And” joins repeats or separate records; there may be more than shown.
Target: Prostaglandin G/H synthase 1 (PTGS1, Homo sapiens, UniProt P23219)

SMILES	assay	setting	how to read	measurement	value
Cc1cc(Nc2nc(C[C@@]3(C(=O)O)CCN(Cc4cccc(Cl)c4F)[C@H](C)C3)cc(C)c2F)[nH]n1	enzyme activity, inhibitor	10 µM		inhibition	-8.38%
COc1ccc(F)cc1S(=O)(=O)Nc1cnc2c(c1)C(=O)NCCO2	enzyme activity, inhibitor	10 µM		inhibition	13%
Cc1ccc2c(n1)c(-c1cccc(S(C)(=O)=O)c1)c(C)n2C/C(F)=C/CN	cell-free assay	10 µM		inhibition	-11%
CS(C)(=O)=Nc1ccc(-c2ccc(-c3nc4cc(O[C@@H]5CO[C@H]6[C@@H]5OC[C@H]6O)[nH]c4cc3F)cc2)cc1	enzyme activity, inhibitor	10 µM		inhibition	12%
Cc1cc(-c2ccc3ccccc3c2)nnc1NCCN1CCN(C)CC1	enzyme activity	10000 nM		inhibition	0%
CCc1nnc(-c2c(OC)cc(-c3cnc4cc(-c5cnn(C)c5)ccn34)cc2OC)o1	radioligand binding	10 µM, SafetyScreen44 mean	lower = stronger displacement	remaining binding	148%
C[C@H](NCc1ccc(-c2ccc(C(F)(F)F)cc2)cc1)C(N)=O	enzyme activity, SafetyScreen panel	1 µM, added: 100 µM arachidonic acid		inhibition	15%
O=C(O)c1ccc(-c2nc(-c3ccccc3Cl)c3sccn23)cc1	radioligand binding, safety screen panel	10 µM	relative to: control	specific binding	121% and 124%
CCN(CC)CCOc1ccc(-c2nnn(Cc3ccc(OC)cc3)c2N)cc1	enzyme activity	10 µM		inhibition	-9%
C/C(=N\OCCCN1CCCCC1)c1ccc(C(F)(F)F)cc1	antagonist, FI	10 µM		inhibition	1.92%

Excerpt of the above:
SMILES	assay	setting	how to read	measurement	value
Cc1cc(-c2ccc3ccccc3c2)nnc1NCCN1CCN(C)CC1	enzyme activity	10000 nM		inhibition	0%
